Results pooled from the literature.
Every numbered part comes from another study and shows a few of its results, in no order. Changes are numbered by the printed parent chain.

Set 1
Target: CCNF, cyclin fold, Cln2 fusion (human)
Technique: yeast growth competition, sequencing
Sample: yeast
Notes: strong parent motif
Reference: not given
Reading: higher = stronger binding
Parent: E2F1 docking peptide (human); PPVKRRLDFETDH; partner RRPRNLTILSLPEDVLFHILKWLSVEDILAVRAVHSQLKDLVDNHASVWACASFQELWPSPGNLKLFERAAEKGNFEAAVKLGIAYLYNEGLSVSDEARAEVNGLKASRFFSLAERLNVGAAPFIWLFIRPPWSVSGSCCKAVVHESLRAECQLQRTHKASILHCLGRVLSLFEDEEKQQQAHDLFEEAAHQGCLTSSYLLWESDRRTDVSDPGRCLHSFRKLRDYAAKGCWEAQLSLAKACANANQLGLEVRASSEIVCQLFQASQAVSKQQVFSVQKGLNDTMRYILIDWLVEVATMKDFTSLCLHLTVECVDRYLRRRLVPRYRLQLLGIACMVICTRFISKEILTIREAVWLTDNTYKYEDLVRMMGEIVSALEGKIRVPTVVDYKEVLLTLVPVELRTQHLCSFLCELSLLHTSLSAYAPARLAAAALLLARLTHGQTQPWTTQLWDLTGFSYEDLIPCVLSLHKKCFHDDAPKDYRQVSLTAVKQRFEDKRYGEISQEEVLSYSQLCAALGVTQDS
`T11L`: “normalised enrichment score” 7.26.
`P2L` — result for “normalised enrichment score”: 7.87.
For `R5P`, “normalised enrichment score” read -0.501.
`D8K` — result for “normalised enrichment score”: 7.85.
`D8S` — result for “normalised enrichment score”: 6.2.
For `R6E`, “normalised enrichment score” read 5.73.
Under “normalised enrichment score”, `R6F` is recorded as 6.75.
For `R5A`, “normalised enrichment score” read 0.81.
For `T11F`, “normalised enrichment score” read 7.54.
Under “normalised enrichment score”, `P2G` is recorded as 8.27.
`K4F` — result for “normalised enrichment score”: 5.96.
`E10W` — result for “normalised enrichment score”: 8.93.
`T11R` — result for “normalised enrichment score”: 7.54.
`D12H` — result for “normalised enrichment score”: 7.81.
`R6D`: “normalised enrichment score” 0.308.
`D12Q` — result for “normalised enrichment score”: 7.64.
Under “normalised enrichment score”, `F9V` is recorded as 3.77.
For `D8Q`, “normalised enrichment score” read 7.46.
For `R5T`, “normalised enrichment score” read 1.78.
Under “normalised enrichment score”, `P2Y` is recorded as 7.99.
Under “normalised enrichment score”, `R6Y` is recorded as 6.71.

Set 2
Target: CREBZF, bZIP domain (human)
Technique: DHFR protein complementation
Sample: yeast
Notes: single substitutions, most at no-binding floor
Reference: wild-type JUN-FOS pair
Reading: higher = stronger binding
Parent: JUN, bZIP domain (human); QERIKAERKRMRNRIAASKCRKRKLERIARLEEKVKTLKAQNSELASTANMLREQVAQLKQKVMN; partner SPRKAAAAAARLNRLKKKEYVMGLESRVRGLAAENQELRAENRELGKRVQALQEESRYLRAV
For `E33P`, the binding fitness was -1.51 natural log.
The binding fitness of `S43N` is reported as -1.53 natural log.
For `Q41N`, the binding fitness was -1.52 natural log.
For `N42Q`, the binding fitness was -1.42 natural log.
With `S43W` the binding fitness was -1.49 natural log.
`S43F` gave a binding fitness of -1.51 natural log.
`S43P` gave a binding fitness of -1.43 natural log.
For `L31G`, the binding fitness was -1.48 natural log.
`S43Q` has a binding fitness of -1.51 natural log.
For `N42P`, the binding fitness was -1.5 natural log.
For `S47L`, the binding fitness was -1.41 natural log.
For `S47M`, the binding fitness was -1.5 natural log.
The binding fitness of `K34Q` is reported as -1.43 natural log.
`L45A` gave a binding fitness of -1.26 natural log.
`S43H` gave a binding fitness of -1.52 natural log.
`T37P` has a binding fitness of -1.49 natural log.
With `V56Y` the binding fitness was -1.47 natural log.
`T37E` has a binding fitness of -1.49 natural log.

Set 3
Target: RING finger protein unkempt homolog, zinc fingers 1-6, GST-SBP tag (UNK, Homo sapiens, UniProt Q9C0B0, residues 30-357)
Technique: RNA Bind-n-Seq
Form: RNA
Sample: in vitro
Tested at: not given
Notes: RNA with constant flanks, human and mouse sites, ends assumed
Reference: input RNA pool
Reading: higher = stronger binding
Residues (chain): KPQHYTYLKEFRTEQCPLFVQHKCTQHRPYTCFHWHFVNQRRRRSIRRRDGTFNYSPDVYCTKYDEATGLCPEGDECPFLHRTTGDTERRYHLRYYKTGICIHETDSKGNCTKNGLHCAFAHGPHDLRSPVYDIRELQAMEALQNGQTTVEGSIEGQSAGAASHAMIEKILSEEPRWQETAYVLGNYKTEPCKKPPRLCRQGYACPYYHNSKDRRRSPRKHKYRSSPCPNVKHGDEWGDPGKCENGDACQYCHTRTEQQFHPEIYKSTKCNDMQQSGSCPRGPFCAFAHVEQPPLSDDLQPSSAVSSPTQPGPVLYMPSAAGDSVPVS
For `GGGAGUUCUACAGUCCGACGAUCACAGUAAAAAGAACAGAAACAGAAAAAAAGCCACCACCUAUUAAGGAUAGCAAAUCUUUAACAGCUGAGCCUCAAAAGGCUGUCCUUCCCACAAAACUGGAGAAAUCGCCCAAACCAGAACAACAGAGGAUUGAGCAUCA`, the bound/input enrichment was 0.338 ratio.
`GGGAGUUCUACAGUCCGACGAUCAUCCCACUGAAAGAUUUAAAGUAUUAUAGAUGUAUCUUGUUAAUUCCUGAUAUCUAUAAUAAGCAGCAUGUGAAAGAACUAGUGAAUAUGAUACUAAUGAAGAUGGGUUUUUCAGGGAUUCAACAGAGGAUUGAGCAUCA` gave a bound/input enrichment of 1.59 ratio.
With `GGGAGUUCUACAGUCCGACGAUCAGACAAGGUGUUAAAACCAUAAGGCAGAGGUUGAGUCCAACAUCCAAUAAAAGUUCUCGCAAGUUAUUUGAUCAAGCCAACAAGCUCAAAAAGACCUGUUCUCAUCUUUUUACAGCCACACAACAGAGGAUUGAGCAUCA` the bound/input enrichment was 0.228 ratio.
For `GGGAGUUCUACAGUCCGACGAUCCCUGCCAGGCUGUCGGGCGUCAUGGUGCCGGCGCCCAUCCAAGACCUGGAGGCCCUGCGCGCGCUCACGGCGCUCUUCAAAGAGCAGCGGAACCGAGAAACAGCACCCAGGACUAUCUUCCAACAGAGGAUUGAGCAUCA`, the bound/input enrichment was 0.0852 ratio.
`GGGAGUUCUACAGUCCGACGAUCAUCAAGCAACUGGUUUCCGGAGCUGAGACACUGAAUCUUGUUGCCGAAAUCCUUAAAUCUAUAGACAGAAUUUCUGAAGUUAAAGACGAGGAGGAAGACUCUUGAGGACCCCUGGGUGUUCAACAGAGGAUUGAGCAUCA` gave a bound/input enrichment of 0.361 ratio.
With `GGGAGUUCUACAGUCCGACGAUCGAAGAAGCCUGCUUCACUCUCCAGUACCUAAACAAAUUGUCCAUGAAACCAGAACCUCUGUUUAGAAGUGUAGGCAAUACUAUUGAUCCUGUCAUUCUUUUCCAAAAAAUGGGAGUAGGUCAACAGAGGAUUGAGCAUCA` the bound/input enrichment was 0.351 ratio.
With `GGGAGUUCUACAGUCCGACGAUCGAGAAGAAAUAUUGCAGUGAAUGAAGAUUCCUCUGCAUUUUAGCACUGCUUUUUCAACUGUAGUUGGCUUUUGAAUGAGGAUGACAAUGGAAGAGAUGAAGAAUGAAGCUGAGACCACAUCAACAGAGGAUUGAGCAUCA` the bound/input enrichment was 0.547 ratio.
For `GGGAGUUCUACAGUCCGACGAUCCUUGGUCAAGACACACUGACGGUACCUACAGAAUACUGGACAUACGGAUUCAGAAUCCAUAAGGCUUUAUCACCUUGAAUCAAGGAUUUAUUUGAUAUCAUCCUCGGUCUUUACUUCCUACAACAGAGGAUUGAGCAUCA`, the bound/input enrichment was 0.183 ratio.
For `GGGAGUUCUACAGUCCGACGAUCAACUCUAGAGCUCCCCCAAGACUGACUGUAGUGUCCCCUAACCGAGCUACUUCAACGGAAACUAGCUCAUCUGUAGAGACUGAUUUGCAACCCUUCCGGGAAGCCAUAGCUCUGCAUGGUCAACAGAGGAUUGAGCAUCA`, the bound/input enrichment was 1.04 ratio.
With `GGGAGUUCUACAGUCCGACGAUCUUAAUUAAGCAUUUAUUUUAGUUGUUUUCAUCCAUUCAAGCAAAAUGAAUAAGCAGCAUUUUUCAUUGCACUUAAAAAUGUAAAAUACCUGCAUGCCACUAAUCUGUAACAUUUUACCAGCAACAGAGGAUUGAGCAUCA` the bound/input enrichment was 1.03 ratio.
`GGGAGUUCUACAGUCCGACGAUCCCUCUACUUCAGUACUUUGGUAUCCUUUUGGACCAGGGACAGCUCAACAAAUACGAAUCCUUAGAGCUUUGUAGGCCUGUACUUCAGCAAGGGCGAAAACAGCUUUUGGAGAAAUGGUUACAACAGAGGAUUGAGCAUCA` has a bound/input enrichment of 0.0855 ratio.

Set 4
Target: ABI1, truncated, D143A, DHFR fusion (Arabidopsis thaliana)
Technique: DHFR PCA, deep sequencing
Sample: yeast
Notes: methotrexate growth selection, single substitutions
Together with: (+)-ABA 4.8 µM
Reference: wild-type fitted maximum
Reading: higher = stronger binding
Parent: PYL1, truncated, DHFR fusion (Arabidopsis thaliana); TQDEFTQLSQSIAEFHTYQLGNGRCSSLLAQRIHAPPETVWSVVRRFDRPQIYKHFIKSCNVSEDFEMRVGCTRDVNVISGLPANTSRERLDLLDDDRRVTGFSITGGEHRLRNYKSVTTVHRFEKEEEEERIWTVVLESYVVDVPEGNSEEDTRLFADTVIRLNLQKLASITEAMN; partner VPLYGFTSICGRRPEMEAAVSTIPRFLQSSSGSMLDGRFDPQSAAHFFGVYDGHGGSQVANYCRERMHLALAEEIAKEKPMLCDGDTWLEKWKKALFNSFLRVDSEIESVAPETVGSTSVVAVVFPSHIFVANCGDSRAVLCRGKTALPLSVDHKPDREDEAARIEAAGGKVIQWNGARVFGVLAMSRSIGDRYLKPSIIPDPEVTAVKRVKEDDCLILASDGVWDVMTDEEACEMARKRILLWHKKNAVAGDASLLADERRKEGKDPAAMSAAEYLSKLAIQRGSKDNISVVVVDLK
`H122Q` — result for “relative binding score”: 10.2%.
Under “relative binding score”, `S171L` is recorded as 63.6%.
Under “relative binding score”, `F103R` is recorded as -8.64%.
`S59N`: “relative binding score” 59.6%.
For `G21E`, “relative binding score” read 79%.
Under “relative binding score”, `F66T` is recorded as 47.6%.
Under “relative binding score”, `E38D` is recorded as 70.9%.
Under “relative binding score”, `H55M` is recorded as 86.5%.
For `S87I`, “relative binding score” read 30.2%.
For `A30C`, “relative binding score” read 63.3%.
Under “relative binding score”, `K168L` is recorded as 0.808%.
`L156N` — result for “relative binding score”: 58%.
For `Q19W`, “relative binding score” read 33%.
`E130G`: “relative binding score” 74.6%.
Under “relative binding score”, `C72S` is recorded as 67.6%.
`E109W` — result for “relative binding score”: -7.22%.
Under “relative binding score”, `D65E` is recorded as 69.4%.
`S117C`: “relative binding score” -0.366%.
Under “relative binding score”, `Q31I` is recorded as 26.4%.
For `S11H`, “relative binding score” read 63.4%.
Under “relative binding score”, `Y53P` is recorded as -6.19%.
Under “relative binding score”, `T120Q` is recorded as -4.6%.
`I33V`: “relative binding score” 50.8%.
For `A35Y`, “relative binding score” read 0.627%.

Set 5
Target: Sal-like protein 4, full length isoform A (SALL4, Homo sapiens, UniProt Q9UJQ4, residues 1-1053)
Chain of UniProt Q9UJQ4 (whole entry, looked up): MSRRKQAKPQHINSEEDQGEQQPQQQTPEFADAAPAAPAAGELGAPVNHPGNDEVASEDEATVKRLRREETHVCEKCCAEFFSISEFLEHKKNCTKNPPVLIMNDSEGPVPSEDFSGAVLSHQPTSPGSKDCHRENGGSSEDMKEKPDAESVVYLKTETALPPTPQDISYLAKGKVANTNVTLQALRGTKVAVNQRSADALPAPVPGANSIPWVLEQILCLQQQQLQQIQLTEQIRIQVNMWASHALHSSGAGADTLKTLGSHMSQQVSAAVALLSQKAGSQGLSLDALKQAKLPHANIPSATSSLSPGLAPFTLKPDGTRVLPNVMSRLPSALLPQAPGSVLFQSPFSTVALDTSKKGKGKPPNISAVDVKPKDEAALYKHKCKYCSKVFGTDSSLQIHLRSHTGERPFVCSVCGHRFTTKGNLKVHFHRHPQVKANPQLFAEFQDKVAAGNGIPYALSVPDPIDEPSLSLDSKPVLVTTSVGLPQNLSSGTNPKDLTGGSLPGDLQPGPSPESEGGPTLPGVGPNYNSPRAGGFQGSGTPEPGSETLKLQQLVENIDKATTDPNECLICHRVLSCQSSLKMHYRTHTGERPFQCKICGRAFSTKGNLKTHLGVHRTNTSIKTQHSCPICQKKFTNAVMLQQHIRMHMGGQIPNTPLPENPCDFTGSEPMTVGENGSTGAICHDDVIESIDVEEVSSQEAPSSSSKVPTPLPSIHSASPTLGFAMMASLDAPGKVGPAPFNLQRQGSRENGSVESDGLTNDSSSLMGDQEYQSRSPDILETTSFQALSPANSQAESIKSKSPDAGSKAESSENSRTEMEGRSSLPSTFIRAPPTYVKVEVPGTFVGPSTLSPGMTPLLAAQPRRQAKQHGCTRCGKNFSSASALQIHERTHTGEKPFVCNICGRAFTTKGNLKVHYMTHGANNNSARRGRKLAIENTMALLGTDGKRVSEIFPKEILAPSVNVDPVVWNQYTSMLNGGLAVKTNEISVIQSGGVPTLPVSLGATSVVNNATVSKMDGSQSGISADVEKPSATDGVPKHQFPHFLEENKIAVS
Technique: universal PBM
Form: double-stranded DNA, one strand shown
Sample: in vitro
Tested at: 600 nM
Notes: 8-mer, flanks averaged, mean of replicates
Reading: higher = stronger binding
`AACTCTGG` gave an E-score of -0.0982.
For `GTTATGCA`, the E-score was 0.194.
`CACCGCTG` has an E-score of -0.257.
For `GGAAGTTA`, the E-score was 0.218.
With `AGTCCCCG` the E-score was -0.251.
With `AGGGTTGG` the E-score was -0.109.
With `GGCGGTTA` the E-score was -0.178.
The E-score of `AGGGTAGG` is reported as -0.243.
The E-score of `CTGCCAAA` is reported as -0.0702.
`ACGCATCT` has an E-score of -0.0309.
`CCACATAA` gave an E-score of 0.202.
`AGCGTTTC` has an E-score of -0.00692.
The E-score of `ATACGTGA` is reported as 0.162.
`CAGGTTGG` has an E-score of -0.204.
`CAGCCAAG` gave an E-score of -0.117.
For `AAACGGTT`, the E-score was -0.0943.
With `CAGGATTA` the E-score was 0.0617.
For `CTCCACCC`, the E-score was -0.343.
For `GTAAGGGA`, the E-score was 0.00449.
`GTCTTGCA` gave an E-score of 0.0866.
With `GTCCCGGA` the E-score was -0.292.
With `CGCTCTAA` the E-score was -0.0535.
`CGGGGGGA` has an E-score of -0.374.
The E-score of `ACCCCGCG` is reported as -0.226.
